# Published values from different studies.
# Compare with care: the assays were run in different laboratories. Values joined by “and” are separate records of one study, mostly repeats; a detail may differ.
# TDP1: Tyrosyl-DNA phosphodiesterase 1 (TDP1, Homo sapiens, UniProt Q9NUW8)
# Sequence of UniProt Q9NUW8 (whole entry, looked up): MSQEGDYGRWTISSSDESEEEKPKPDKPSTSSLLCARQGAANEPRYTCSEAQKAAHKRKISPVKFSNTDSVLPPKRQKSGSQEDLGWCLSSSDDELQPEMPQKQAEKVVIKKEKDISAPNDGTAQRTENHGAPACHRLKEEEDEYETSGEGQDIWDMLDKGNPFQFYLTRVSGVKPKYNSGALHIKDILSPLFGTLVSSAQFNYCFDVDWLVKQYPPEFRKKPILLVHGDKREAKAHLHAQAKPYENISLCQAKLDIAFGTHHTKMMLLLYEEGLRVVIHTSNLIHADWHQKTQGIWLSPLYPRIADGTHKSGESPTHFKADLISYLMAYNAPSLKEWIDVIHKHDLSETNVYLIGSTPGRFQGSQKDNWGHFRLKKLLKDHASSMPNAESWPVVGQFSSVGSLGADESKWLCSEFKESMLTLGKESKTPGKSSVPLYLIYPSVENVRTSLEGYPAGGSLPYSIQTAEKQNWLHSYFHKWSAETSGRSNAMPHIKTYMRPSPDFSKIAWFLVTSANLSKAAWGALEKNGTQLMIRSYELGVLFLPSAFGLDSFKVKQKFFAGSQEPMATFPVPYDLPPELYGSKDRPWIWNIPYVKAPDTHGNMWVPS
# STK3: Serine/threonine-protein kinase 3 (STK3, Homo sapiens, UniProt Q13188)
# Sequence of UniProt Q13188 (whole entry, looked up): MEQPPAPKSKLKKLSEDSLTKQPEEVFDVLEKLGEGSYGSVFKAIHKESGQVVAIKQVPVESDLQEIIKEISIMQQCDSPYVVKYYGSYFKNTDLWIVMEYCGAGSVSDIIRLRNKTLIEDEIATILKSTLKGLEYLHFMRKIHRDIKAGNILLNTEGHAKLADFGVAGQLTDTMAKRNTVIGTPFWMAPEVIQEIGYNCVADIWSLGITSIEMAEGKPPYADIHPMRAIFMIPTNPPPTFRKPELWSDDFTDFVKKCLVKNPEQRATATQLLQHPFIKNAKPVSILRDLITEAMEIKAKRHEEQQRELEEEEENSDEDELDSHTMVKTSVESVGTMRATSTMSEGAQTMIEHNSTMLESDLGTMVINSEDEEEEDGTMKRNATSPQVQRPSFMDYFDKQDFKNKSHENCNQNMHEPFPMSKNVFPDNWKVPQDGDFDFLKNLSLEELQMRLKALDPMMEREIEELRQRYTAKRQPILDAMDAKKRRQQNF
SMILES,target,test,system,conditions,scale,quantity,value
O=C(O)c1ccc(Nc2c(-c3ccc(CON=Cc4sccc4-n4cccc4)cc3)nc3cc(-c4ccccc4)ccn23)cc1 (mixture of isomers),TDP1,"enzyme activity, inhibitor",,"100 µM, unpurified compound",,inhibition,13.9%
CNC(=O)C1CCN(c2cc(C)c(F)cc2NC(=O)c2ccc(-c3cc(O)ccc3C)c(C)c2)CC1,STK3,"binding, competition with immobilised ligand",,1 µM,,remaining binding,100%
COCC12C(=O)NC3C4(C(OC)CC1O)C1CC5(O)C(OC)C(O)C(OC(C)=O)(C1C5OC(=O)c1ccccc1)C3(O)C(OC)C24 (stereo not shown),STK3,"kinase activity, inhibitor, ProQinase kinase profiling",,25 µM,relative to: control,remaining activity,86% and 93%
CN1CC[C@@H](COc2cnc(C#N)cc2-c2ccn3nc(NC(=O)C4CC4)cc3c2)C1,STK3,"enzyme activity, inhibitor",,1 µM,,inhibition,-18%
C=CC(=O)N1CCCC(n2c(=O)c3ncccc3n(Cc3ccc(Oc4ccccc4)cc3)c2=O)C1 (stereo not shown),STK3,"cell-free assay, competition with immobilised ligand",,1 µM,,remaining binding,100%
Nc1nc(Nc2ccccc2)sc1C(=O)c1ccccc1,STK3,"enzyme activity, inhibitor",,10 µM,,remaining activity,42%
Nc1ncc2c(n1)-c1c([nH]c3ccc(C4=CCOCC4)cc13)CCC2,STK3,"binding, competition with immobilised ligand",,1 µM,,remaining binding,100%
CCn1cc(C(=O)O)c(=O)c2c(N)c(F)c(NC3CCCCC3)cc21,STK3,kinase activity,,"0.1 µM, with: ATP at Km",,inhibition,-23.6%
COc1cc(Nc2nccc(-c3cnn4nc(OC)ccc34)n2)cc(C(F)(F)F)c1,STK3,"binding, competition with immobilised ligand",,1 µM,,remaining binding,91%
COc1c(OCCCN2CCOCC2)ccc2c1N=C(NC(=O)c1cnc(N)nc1)N1CCN=C21,STK3,"kinase activity, inhibitor",,1 µM,relative to: untreated control,remaining activity,121%
c1ccc2c(Nc3cc(C4CCC4)[nH]n3)nc(Nc3ccc4nc[nH]c4c3)nc2c1,STK3,"enzyme activity, inhibitor",,0.25 µM,,remaining activity,2%
Cc1ccc(C)c(-c2ccc3nc(NC(=O)C4CCCCC4)nn3c2)c1,STK3,"enzyme activity, Dundee kinase panel",,10 µM,,remaining activity,94%
Cc1cccc(O[C@H]2CCC[C@@H](C(C)CNCc3ccncc3)C2)c1 (relative stereo),STK3,"enzyme activity, inhibitor",,1 µM,,inhibition,4%
C=CC(=O)Nc1cc(-c2nn(C3CCN(CCNC(=O)[C@H](C)CCC45CC6CC(CC(C6)C4)C5)CC3)c3ncnc(N)c23)ccc1Oc1ccccc1,STK3,"inhibitor, KiNativ profiling",biochemical,2 µM,,inhibition,17.8%
Cc1cccc(-c2ccc3nc(NC(=O)C4CCCCC4)nn3c2)c1,STK3,"enzyme activity, Dundee kinase panel",,10 µM,,remaining activity,107%
Cc1cc(C=NOCc2ccc(-c3nc4cc(-c5ccccc5)ccn4c3Nc3ccc(C(=O)O)cc3)cc2)c(C)n1-c1ccc(C(=O)O)cc1,TDP1,"enzyme activity, inhibitor",,"100 µM, unpurified compound",,inhibition,98.2%
